# Results from different studies.
# A part holds a random share of what one study measured. Positions count from the first letter of the parent shown.

# Series 1 — target: ATF7, bZIP domain (human); technique: DHFR protein complementation; matrix: yeast; reference: wild-type JUN-FOS pair; reading: higher = stronger binding
# Notes: single substitutions, most at no-binding floor
# Parent: JUN, bZIP domain (human); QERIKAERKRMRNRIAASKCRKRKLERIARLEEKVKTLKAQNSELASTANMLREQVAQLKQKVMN; partner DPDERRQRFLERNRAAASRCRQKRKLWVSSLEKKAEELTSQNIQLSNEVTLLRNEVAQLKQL
Variant,binding fitness
R53A,-1.36 natural log
K39W,-1.32 natural log
L38P,-1.5 natural log
A40V,-0.999 natural log
L52K,-1.5 natural log
V35A,-1.31 natural log
Q41G,-1.37 natural log
A49H,-1.38 natural log
L45S,-1.52 natural log
Q55M,-0.997 natural log
E54T,-1.29 natural log
Q55G,-1.39 natural log
M51C,-1.15 natural log
E33M,-1.1 natural log
K34R,-0.748 natural log
L38K,-1.4 natural log

# Series 2 — target: CCNF, cyclin fold, Cln2 fusion (human); technique: yeast growth competition, sequencing; matrix: yeast; notes: weak parent motif; reference: not given; reading: higher = stronger binding
# Parent: MASTL docking peptide (human); PMIAKNLMCELDE
Variant,normalised enrichment score
A4Y,0.0164
I3K,0.0481
M2H,0.0573
M2T,0.0508
E10S,0.132
A4C,0.272
E10M,0.377
A4R,0.489
C9Q,0.104
D12N,-0.0168
I3W,-0.0414
M8N,-0.55
L7H,-0.884
L7F,-0.558
C9P,0.479
K5G,-0.444
M2S,0.154
I3M,-0.312
E10T,-0.23
M2V,-0.0158
M2Q,0.15
M2L,-0.0701
N6Q,0.213

# Series 3 — technique: RNA Bind-n-Seq; molecule type: RNA; matrix: in vitro; tested at: 365 nM; reference: no-protein control; reading: higher = stronger binding
# Target: RNA binding protein fox-1 homolog 2, RRM domain, GST-SBP tag (RBFOX2, Homo sapiens, UniProt O43251-10, residues 100-194)
# Notes: natural RNA segment, single round, ends assumed
# Shared flanks, not repeated: GGGAGUUCUACAGUCCGACGAUC … UGGAAUUCUCGGGUGCCAA
# Residues (chain): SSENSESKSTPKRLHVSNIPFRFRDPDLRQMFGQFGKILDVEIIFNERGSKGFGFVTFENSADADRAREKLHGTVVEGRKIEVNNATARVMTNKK
Sequence,RBNS enrichment (R)
GGACCACAGGCCUGUACCACCAUGGCCAGCUUUAGAGAGUAAAACAUUUUAAUUUGUUCUUGAUUUGUAUGAUGUUGGGGGCGUUAGCAUUACGUGUUGAAUAUUUUGAG,0.785
ACUGGAAGGGGUUUUUGUAUAACUAAAACCUCAGCGCAUAAAGGAGAUUUAAAAGGAGCACAUGAUUUAGUGGGUGGGCCAUGAAACUAGAGAUGGGAUUUGGGGGUGAA,1.13
GACCAAAUUUUUUCUCAGUGUGUGUGUUUAUUCCUUAUAGGUGUAAAUGAGAAGACGUGUUUUUUUCCUUCACCGAUGCUCCAUCCUCGUAUUUCUUUUUCCUUGUAAAU,1.9
AAACCUGGAGGCAGGAACAUAGCAGAUUUAAGGGGUACCCAGCUGUGGAAGGUCAUUCCUGAGAAGUGGGGGCUUGUUUUAUGAAACCUUAAAGGCCAAACGGACUGUCC,0.642
AACACUCUUAGAAUUCCCAUUUAAUAAACCAUAUGAGAAAACCCUCUAUUACUCUUACACUUUAGUUUUACCAUUUGAGUAGCCACUUAUUCACCAGAGUUGGAAUUGAG,0.851
GAUCUAGUAAAACAAACAAGUUUUCAAAACAAGAGGAAGUCUGGAGUCUGCCGCUAAUUAAUCUUAUUUAUUGCAGCUUAUAAAUUGUGCAAUCUCUAUUUCAUUAUCCU,0.501
GACAGAGGGACGAUGUUGAGUCUAGAAGGGCACAAUAUGCCAGAGUUUUAUGGCCAGUGAUCCUCAAAUCCAUUGGCUGUUUGAAGACCCUGUCCUCACUUCUCCUUUUU,0.37
CAAGAACAGUCAGUUAGCCCUGCUGUCUUGACUAUGUUGUUUUUAAUCACUGUGACCUCUGAAUUUUCAAGUAUAGGCCAAAUGAGCCAAGUAACUUGGCUGUGAAAUGG,0.437
UCUUUCCUGAUGGGGAUCUCUGUGUUCUUGAGCUCUGAUUAUGUAAUGAAGGCUGACACAGUCCCCCUGCUGAUCAUUUUGCUUUAUAUAUUAAAAAAUGCUGCAAAAAU,0.58
CAUUAGCUGCUUAAAAAAGCAUUGAGUUAAUUUUUUUAAAUAUCAACUAAAAUAUCAUAGUUCUGUGGUAGACAUUGUUUUAUAAUGAAAUAACUGCAACUAGAGAAAAC,0.833
CCUGCCUGCAAAGGUUCCCUGCAUGCCUCUUCCCCUGAGCCCAGGGGUACCUGGUCCCCAUUUCCUACUCCUCUUUUAACAAAAGAGAAAAGAAUUCCAAACCACCACCA,16
CUAGUGUUGGUAGGUCCUAGACGUGGUUCCCUCCAGCCUCCCCAAAAUCAACCCUGGUGUUGAGAGAACGUCCUUCUGUCCAUCGUGGGUAACAGCCUUGGGGAGGGUGC,0.253

# Series 4 — technique: DHFR PCA, deep sequencing; matrix: yeast; with: (+)-ABA 2500 µM; reference: wild-type fitted maximum; reading: higher = stronger binding
# Target: ABI1, truncated, D143A, DHFR fusion (Arabidopsis thaliana)
# Notes: methotrexate growth selection, single substitutions
# Parent: PYL1, truncated, DHFR fusion (Arabidopsis thaliana); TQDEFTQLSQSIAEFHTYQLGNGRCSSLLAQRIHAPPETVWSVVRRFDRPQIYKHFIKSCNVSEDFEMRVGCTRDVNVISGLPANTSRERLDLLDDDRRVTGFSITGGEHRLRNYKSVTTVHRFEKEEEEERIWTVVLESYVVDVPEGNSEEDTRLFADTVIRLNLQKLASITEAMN
Variant,relative binding score [%]
P37G,82.7
Q7L,101
R46F,76
F56S,44.6
V78Q,54.5
I162D,-5.09
R24Q,104
T160L,97.6
M176E,98.7
M176K,103
L82E,8.77
R111W,63.9
V43I,96.7
L166M,95.6
Q167H,96.5

# Series 5 — technique: protein binding microarray; molecule type: double-stranded DNA, one strand shown; matrix: in vitro; tested at: not given; reference: not given; reading: higher = stronger binding
# Target: Histone acetyltransferase KAT6A, both winged helices, GST fusion (KAT6A, Homo sapiens, UniProt Q92794, residues 1-181)
# Notes: 8-mer, flanks averaged, mean of 2 arrays, mostly near background
# Residues (chain): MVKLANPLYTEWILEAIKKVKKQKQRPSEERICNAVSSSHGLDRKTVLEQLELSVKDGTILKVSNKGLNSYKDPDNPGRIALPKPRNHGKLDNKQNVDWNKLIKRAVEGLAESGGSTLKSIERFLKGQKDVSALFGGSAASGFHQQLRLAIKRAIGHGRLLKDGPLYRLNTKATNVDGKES
Sequence,E-score
CGTTCTCC,-0.0194
CATTGGAA,-0.0494
AATGCGAA,0.00822
CCCCTGAC,-0.0924
CAACAATG,-0.0206
CATAGATG,-0.0849
GTCTAGGA,-0.0281
GGACCTCC,0.0626
AACAACGT,-0.0284
ATCCGGCA,0.0253
TTCCTAAA,-0.215
CGAGTTTA,0.051
AGCGTCCA,0.056
CGATATGC,0.146
AGTTCGAA,-0.0201
ATGTTACC,0.0204
CGCCATGA,0.053
GCCGCGCA,0.364
AAGATTCC,-0.0584
CGGCGTCC,0.27
AAATTGAT,-0.0519
GGGTACCA,-0.163
AAGGTACA,-0.219

# Repeated from above (series 1):
Variant,binding fitness
V35A,-1.31 natural log
Q41G,-1.37 natural log
A49H,-1.38 natural log
L45S,-1.52 natural log
Q55M,-0.997 natural log
E54T,-1.29 natural log
Q55G,-1.39 natural log
M51C,-1.15 natural log
